Assay results pooled from the literature.
Compare with care: the assays were run in different laboratories. Numbers after ± are the reported error. Converted amounts (≈) assume the structure as drawn.

Compound | target or system | test | system | conditions | quantity | value
CN(Cc1cc(C2CC2)on1)C(=O)c1cccc(-c2ccc3c(c2)CCO3)c1 | Cryptococcus neoformans | broth microdilution | H99, YPD | – | MIC | > 64 µg/mL
N=C(N)NCCC[C@@H]1NC(=O)[C@H](CCCCNC(=O)CC[C@H](NC(=O)CCOCCOCCOCCOCCNC(=O)CC[C@H](NC(=O)CN2CCN(CC(=O)O)CCN(CC(=O)O)CCN(CC(=O)O)CC2)C(=O)NCCOCCOCCOCCOCCC(=O)N[C@@H](CCC(=O)NCCCC[C@@H]2NC(=O)[C@@H](Cc3ccccc3)NC(=O)[C@H](CC(=O)O)NC(=O)CNC(=O)[C@H](CCCNC(=N)N)NC2=O)C(=O)NCCCC[C@@H]2NC(=O)[C@@H](Cc3ccccc3)NC(=O)[C@H](CC(=O)O)NC(=O)CNC(=O)[C@H](CCCNC(=N)N)NC2=O)C(=O)NCCCC[C@@H]2NC(=O)[C@@H](Cc3ccccc3)NC(=O)[C@H](CC(=O)O)NC(=O)CNC(=O)[C@H](CCCNC(=N)N)NC2=O)NC(=O)[C@@H](Cc2ccccc2)NC(=O)[C@H](CC(=O)O)NC(=O)CNC1=O [indium-111 labelled] | – | – | female athymic nude mice, heart | intravenous, 3 µCi, 72 h, U-87 MG glioma xenograft | tissue uptake | 0.1 ± 0.01 %ID/g
CC1N=C(CCCCCCCCCCC2=CC(CCCCCCCCCCC3=NC(C)C(O)CC3)C3CCCN3C2)CCC1O (centres unmarked) | Cryptococcus neoformans | – | ATCC 90113 | – | MIC | 1.25 µg/mL
CCCC[C@H](NC(=O)CNC(=O)CNC(=O)c1ccc(NN)nc1)C(=O)N[C@H]1CC(=O)NCCCC[C@@H](C(N)=O)NC(=O)[C@H](Cc2c[nH]c3ccccc23)NC(=O)[C@H](CCCNC(=N)N)NC(=O)[C@@H](Cc2ccccc2)NC(=O)[C@H](Cc2c[nH]cn2)NC1=O [technetium-99m labelled] | – | – | C57 mouse, B16/F1 melanoma-bearing, kidneys | intravenous, 4 h | tissue uptake | 5.29 ± 1.84 %ID/g
CC1C(=NNC(=O)c2ccncc2)C(C)C(c2ccc(Cl)cc2)OC1c1ccc(Cl)cc1 (centres unmarked) | Rhizopus | – | – | 72 to 96 h | MIC | 50 µg/mL
CC(C)C[C@@H]1NC(=O)[C@H](C)NC(=O)[C@H](C)NC(=O)[C@H](NC(=O)[C@H](CO)NC(=O)[C@@H](CCCCN)NC(=O)[C@@H](CC(C)C)NC(=O)[C@@H](N)Cc2ccccc2)[C@H](C(N)=O)OC1=O | Bacillus subtilis Staphylococcus epidermidis | – | ATCC 14990 | tested as TFA salt | MIC | 4 µg/mL
[O-][N+]1=C(c2ccccc2)C2=NCCCN2c2ncccc21 | Prevotella intermedia/nigrescens | – | ATCC 25611 | – | MIC | 0.125 µg/mL
C[C@@H](c1ccn(Cc2ccc(Cl)cc2Cl)n1)[C@](O)(Cn1cnnn1)c1ccc(F)cc1F | Candidozyma auris | growth | 888 drug-resistant isolate | 24 h, 30 °C, ≥50% inhibition | MIC | 64 µg/mL
CN[C@@H]1[C@H](O)[C@H](NC)[C@H]2O[C@]3(O)[C@H](O[C@@H]2[C@H]1O)O[C@H](C)C[C@@]3(O)CNCc1ccccc1 | Streptococcus pneumoniae | – | Daw27 drug resistant | – | MIC | 13 µg/mL
CC[C@H](C)[C@H](NC(=O)[C@H](CCCN)NC(=O)[C@H](CC(N)=O)NC(=O)[C@H](Cc1c[nH]c2ccccc12)NC(=O)[C@H](Cc1ccccc1)NC(=O)[C@H](CCCN)NC(=O)[C@H](CCCCNC(=N)N)NC(=O)[C@H](CC(C)C)NC(=O)[C@H](Cc1c[nH]c2ccccc12)NC(=O)[C@H](CCCN)NC(=O)[C@H](CCCCNC(=N)N)NC(=O)[C@H](CC(C)C)NC(=O)CNC(C)=O)C(=O)N[C@@H](CCCN)C(=O)N[C@@H](CCCCNC(=N)N)C(N)=O | Citrobacter freundii | bacterial growth, broth microdilution | multidrug-resistant | – | MIC | 3.12 µM
CCCCCCCCC(=O)NCc1ccc(O)c(OC)c1 | mAb 4-AT4 | antibody binding, indirect competitive ELISA | – | together with: coating antigen hapten 5-OVA | IC50 | 0.002 µg/mL (≈ 6.82 nM)
N=C(N)NCCC[C@@H]1NC(=O)[C@H](CCCCNC(=O)CNC(=O)CNC(=O)CNC(=O)CC[C@H](NC(=O)CCOCCOCCOCCOCCNC(=O)CC[C@H](NC(=O)CN2CCN(CC(=O)O)CCN(CC(=O)O)CCN(CC(=O)O)CC2)C(=O)NCCOCCOCCOCCOCCC(=O)N[C@@H](CCC(=O)NCC(=O)NCC(=O)NCC(=O)NCCCC[C@@H]2NC(=O)[C@@H](Cc3ccccc3)NC(=O)[C@H](CC(=O)O)NC(=O)CNC(=O)[C@H](CCCNC(=N)N)NC2=O)C(=O)NCC(=O)NCC(=O)NCC(=O)NCCCC[C@@H]2NC(=O)[C@@H](Cc3ccccc3)NC(=O)[C@H](CC(=O)O)NC(=O)CNC(=O)[C@H](CCCNC(=N)N)NC2=O)C(=O)NCC(=O)NCC(=O)NCC(=O)NCCCC[C@@H]2NC(=O)[C@@H](Cc3ccccc3)NC(=O)[C@H](CC(=O)O)NC(=O)CNC(=O)[C@H](CCCNC(=N)N)NC2=O)NC(=O)[C@@H](Cc2ccccc2)NC(=O)[C@H](CC(=O)O)NC(=O)CNC1=O [indium-111 labelled] | – | – | athymic nude mice, female, U-87 MG glioma xenograft, spleen | intravenous, 3 µCi, 24 h | tissue uptake | 1.06 ± 0.19 %ID/g
CC[C@H](C)[C@H](NC(=O)[C@H](CCCNC(=N)N)NC(=O)[C@H](CCCCN)NC(=O)[C@H](CC(C)C)NC(=O)[C@H](CC(C)C)NC(=O)CNC(=O)[C@H](Cc1c[nH]cn1)NC(=O)[C@H](C)NC(=O)[C@@H](N)CC(=O)O)C(=O)N[C@@H](CCCCN)C(=O)N[C@H](C(=O)N[C@@H](CC(C)C)C(=O)N[C@@H](CC(C)C)C(N)=O)[C@@H](C)O | Enterobacter aerogenes | – | ATCC 13048 | 18 to 20 h | MIC | > 32 µM
COc1ccc(C2=[N+]([O-])c3ccccc3N3CC(C)(C)CN=C23)cc1 | Cutibacterium acnes | microbial growth | – | – | MIC | 16 µg/mL
CC1=C[C@@]2(C)C(=C(C)[C@H]3[C@@H]4C[C@H](C)C[C@H](C)[C@H]4[C@H]4Oc5ccc(cc5)C[C@]5(O)NC(=O)[C@]6(O[C@H]65)C(=O)[C@@H]2[C@@H]43)[C@H]1C | Staphylococcus aureus, Enterococcus faecalis, Enterococcus faecium | broth microdilution | drug-susceptible and drug-resistant | range over Gram-positive panel | MIC | 3.1 to 6.3 µM
[O-][N+]1=C(Cc2ccccc2)C2=NCCCN2c2ccccc21 | Cutibacterium acnes | microbial growth | – | – | MIC | > 32 µg/mL
C=C(NC(=O)C(=C)NC(=O)c1csc(C2=NC3c4csc(n4)C4NC(=O)c5csc(n5)C(C(C)(O)C(C)O)NC(=O)C5CSC(=N5)C(=CC)NC(=O)C(C(C)O)NC(=O)c5csc(n5)C3(CC2)NC(=O)C(C)NC(=O)C(=C)NC(=O)CNC(=O)C(C(C)CC)NC2C=Cc3c(C(C)O)cc(nc3C2O)C(=O)OC4C)n1)C(N)=O (centres unmarked) | Bacillus sp. | broth microdilution | ATCC 27859 | 18 h, 37 °C | MIC | 0.19 µg/mL
CC[C@H](C)[C@H](NC(=O)[C@H](C)NC(=O)CNC(=O)[C@@H](N)CCSC)C(=O)N[C@@H](C)C(=O)N[C@@H](CCCCN)C(=O)N[C@@H](CC(C)C)C(=O)N[C@@H](CCCNC(=N)N)C(=O)N[C@@H](C)C(=O)N[C@@H](CCCCN)C(=O)N[C@@H](Cc1ccccc1)C(=O)NCC(=O)N[C@@H](Cc1c[nH]c2ccccc12)C(=O)N1CCC[C@H]1C(=O)N[C@@H](Cc1ccccc1)C(=O)N[C@H](C(=O)N[C@@H](CCCCN)C(=O)N[C@@H](CCCCN)C(=O)N[C@@H](Cc1ccccc1)C(=O)N[C@@H](Cc1ccc(O)cc1)C(=O)N[C@@H](CCCCN)C(=O)N[C@@H](CCC(N)=O)C(=O)N[C@H](C(=O)N[C@@H](CCSC)C(=O)N[C@@H](CCC(N)=O)C(=O)N[C@@H](Cc1ccccc1)C(=O)N[C@H](C(=O)NCC(=O)N[C@@H](CCC(N)=O)C(=O)NCC(=O)N[C@@H](Cc1c[nH]c2ccccc12)C(=O)N[C@H](C(=O)N[C@H](C(=O)N[C@@H](CC(=O)O)C(=O)N[C@@H](CCC(N)=O)C(=O)N[C@H](C(=O)N[C@@H](CCC(=O)O)C(=O)N[C@@H](CCCCN)C(=O)N[C@@H](Cc1c[nH]c2ccccc12)C(=O)N[C@@H](CC(C)C)C(=O)N[C@@H](CCCCN)C(=O)N[C@@H](CCCNC(=N)N)C(=O)N[C@@H](Cc1c[nH]cn1)C(=O)O)[C@@H](C)CC)[C@@H](C)CC)[C@@H](C)O)[C@@H](C)CC)[C@@H](C)CC)[C@@H](C)CC | Bacillus subtilis subsp. subtilis | – | ATCC 23857 | 10 h | MIC | 11.5 ± 0.1 µM
CC(C)c1ccc(Cn2ccc([C@H](C)[C@](O)(Cn3cnnn3)c3ccc(F)cc3F)n2)cc1 | Candidozyma auris | microbial growth | 887 | 24 h, drug-resistant strain, clinical isolate | MIC | 4 µg/mL
CC(C)C[C@@H]1NC(=O)[C@H](C)NC(=O)[C@H](NC(=O)[C@@H](N)COC(=O)[C@@H](C)NC(=O)[C@@H](CC(C)C)NC(=O)[C@@H](N)Cc2ccccc2)[C@H](C(N)=O)OC(=O)[C@H](CC(C)C)NC1=O | Bacillus subtilis Staphylococcus epidermidis | – | ATCC 14990 | tested as TFA salt | MIC | > 32 µg/mL
O=C(/C=C/CBr)O[C@@H]1COC(=O)C1 | Vibrio harveyi | – | BB120 | – | MIC | 125 µM
N#Cc1ccc(-c2c[nH]c(CNC(=O)Nc3ncc(Sc4ccccn4)s3)n2)cc1 | Bifidobacterium breve | broth microdilution | ATCC 11863 | without verapamil | MIC | > 128 µM
CC[C@H](C)[C@@H]1NC(=O)CNC(=O)[C@H](CCCCN)NC(=O)[C@H](C)NC(=O)[C@H](CCC(=O)O)NC(=O)[C@H](Cc2ccccc2)NC(=O)[C@H](CO)NC(=O)[C@H](CC(C)C)NC(=O)[C@H](C(C)C)NC(=O)[C@H](CC(=O)O)NC(=O)[C@@H](NC(=O)[C@@H](NC(=O)[C@@H](N)C(C)C)[C@@H](C)O)CSSC[C@@H]2NC(=O)[C@H](CO)NC(=O)CNC(=O)CNC(=O)[C@H](CCCCN)NC(=O)[C@H](CCCCN)NC(=O)[C@H](CCCNC(=N)N)NC(=O)[C@H](CC(C)C)NC(=O)[C@H](C)NC(=O)[C@H]([C@@H](C)CC)NC(=O)[C@@H]3CSSC[C@@H](C(=O)N[C@@H](CCCNC(=N)N)C(=O)N[C@@H](CC(N)=O)C(=O)O)NC(=O)[C@H](C(C)C)NC(=O)[C@H](CSSC[C@H](NC(=O)[C@H](C)NC(=O)[C@H](CO)NC(=O)[C@H](Cc4c[nH]cn4)NC(=O)[C@H](CC(N)=O)NC(=O)[C@H](C(C)C)NC(=O)[C@H](C)NC1=O)C(=O)N[C@@H](C)C(=O)N[C@@H](CC(C)C)C(=O)N[C@@H](Cc1c[nH]cn1)C(=O)N3)NC(=O)[C@H](C(C)C)NC(=O)CNC(=O)[C@H](CC(N)=O)NC(=O)[C@H](CCC(N)=O)NC2=O | Salmonella typhimurium | broth microdilution | KCTC 1926 | 16 h, 37 °C | MIC | 3.1 µM
C[C@@H](c1ccn(Cc2ccc(OC(F)(F)F)cc2)n1)[C@](O)(Cn1cnnn1)c1ccc(F)cc1F | Candidozyma auris | growth | 789 drug-resistant isolate | 24 h, 30 °C, ≥50% inhibition | MIC | 0.25 µg/mL
C[N+]1=C2C(c3ccc(Cl)cc3)=[N+]([O-])c3ccccc3N2CCC1 | Clostridioides difficile | microbial growth | ATCC43255 | – | MIC | 16 µg/mL
CN[C@@H]1[C@H](O)[C@H](NC)[C@H]2O[C@]3(O)[C@H](O[C@@H]2[C@H]1O)O[C@H](C)C[C@@]3(O)CNCc1ccc(F)cc1 | Streptococcus pneumoniae | – | BAA-1407 mefE ermB resistant | – | MIC | 6 µg/mL
CC[C@H](C)[C@H](NC(=O)[C@H](CCCCN)NC(=O)[C@H](CC(N)=O)NC(=O)[C@H](Cc1c[nH]c2ccccc12)NC(=O)[C@H](Cc1ccccc1)NC(=O)[C@H](CCCCN)NC(=O)[C@H](CCCCNC(=N)N)NC(=O)[C@H](CC(C)C)NC(=O)[C@H](Cc1c[nH]c2ccccc12)NC(=O)[C@H](CCCCN)NC(=O)[C@H](CCCCNC(=N)N)NC(=O)[C@H](CC(C)C)NC(=O)CNC(C)=O)C(=O)N[C@@H](CCCCN)C(=O)N[C@@H](CCCCNC(=N)N)C(N)=O | Citrobacter freundii | bacterial growth, broth microdilution | multidrug-resistant | – | MIC | 3.12 µM
OB(O)c1cnn(-c2cc(Cl)ncn2)c1 | Citrobacter freundii | bacterial growth | AmpC-overproducing clinical isolate | cefotaxime alone | MIC | 2 µg/mL
C[C@@H](c1ccn(Cc2ccc(Cl)c(Cl)c2)n1)[C@](O)(Cn1cnnn1)c1ccc(F)cc1F | Candidozyma auris | microbial growth | D12 | 24 h, drug-resistant strain, clinical isolate | MIC | 2 µg/mL

A few entries again:
Compound | target or system | test | system | conditions | quantity | value
CC1C(=NNC(=O)c2ccncc2)C(C)C(c2ccc(Cl)cc2)OC1c1ccc(Cl)cc1 (centres unmarked) | Rhizopus | – | – | 72 to 96 h | MIC | 50 µg/mL
CC(C)C[C@@H]1NC(=O)[C@H](C)NC(=O)[C@H](C)NC(=O)[C@H](NC(=O)[C@H](CO)NC(=O)[C@@H](CCCCN)NC(=O)[C@@H](CC(C)C)NC(=O)[C@@H](N)Cc2ccccc2)[C@H](C(N)=O)OC1=O | Bacillus subtilis Staphylococcus epidermidis | – | ATCC 14990 | tested as TFA salt | MIC | 4 µg/mL
[O-][N+]1=C(c2ccccc2)C2=NCCCN2c2ncccc21 | Prevotella intermedia/nigrescens | – | ATCC 25611 | – | MIC | 0.125 µg/mL
